Experimental data gathered from unrelated publications.
Every numbered part comes from another study and shows a few of its results, in no order.

Study 1
Target: Interferon regulatory factor 7, full length, phosphomimetic (IRF7, Homo sapiens, UniProt Q92985, residues 1-503, S471D/S472D/S475D/S476D/S477D/S483D/S484D/S487D)
Chain of UniProt Q92985 (whole entry, unmodified, looked up): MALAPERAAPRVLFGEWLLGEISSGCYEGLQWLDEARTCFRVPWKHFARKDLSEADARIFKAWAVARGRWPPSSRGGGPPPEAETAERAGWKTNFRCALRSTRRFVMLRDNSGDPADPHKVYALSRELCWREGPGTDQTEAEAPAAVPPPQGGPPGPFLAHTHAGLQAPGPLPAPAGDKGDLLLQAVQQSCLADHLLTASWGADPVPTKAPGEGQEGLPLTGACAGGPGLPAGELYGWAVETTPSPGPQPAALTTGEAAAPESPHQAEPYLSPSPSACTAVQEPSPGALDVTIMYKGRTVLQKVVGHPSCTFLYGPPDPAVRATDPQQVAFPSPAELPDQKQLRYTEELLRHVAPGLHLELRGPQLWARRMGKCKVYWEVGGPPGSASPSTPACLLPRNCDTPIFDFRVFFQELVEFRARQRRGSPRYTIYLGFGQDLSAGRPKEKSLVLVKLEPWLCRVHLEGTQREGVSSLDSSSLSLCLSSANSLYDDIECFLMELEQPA
Method: protein-binding microarray
Form: double-stranded DNA, one strand shown
Matrix: in vitro
Tested at: 2200 nM top
Notes: 60-bp whole probe
With: salmon DNA 0.4 mg/ml
Relative to: random background probes
Reading: higher = stronger binding
Constant ends, left off below: GCCTAGCAC … GTCTTGATTCGCTTGACGCTGCTG
Strand | fitted relative affinity
TCAACTCTGTCCCTCTGACTGTGCTAG | 1.17 z-score
TTAGAACTGGGGTATCGATTTGTGCTA | 0.601 z-score
GACGGTATCGGGCTGGGGACGTGCTAG | -0.177 z-score
GACGATTCCAGTTTCGAGATGTGCTAG | 4.57 z-score
TCATTTCTGTTTTTGCTACTGTGCTAG | 4.02 z-score

Study 2
Target: Prothrombin, mature alpha-thrombin (F2, Homo sapiens, UniProt P00734)
Method: aptamer microarray, sandwich
Form: DNA with 2'F-ANA
Matrix: in vitro
Tested at: 200 nM
Notes: whole 15-mer aptamer, many near background
With: Cy3 exosite-II aptamer, 400 nM
Reading: higher = stronger binding
Strand | mean fluorescence intensity [a.u.]
GGTTGGTGTGGTTGG (2'F-ANA at 2 9 10 11) | 126
GGTTGGTGTGGTTGG (2'F-ANA at 1 5 6 8 13 14 15) | 49.4
GGTTGGTGTGGTTGG (2'F-ANA at 1 4 5 8 9 10 12) | 49.7
GGTTGGTGTGGTTGG (2'F-ANA at 2 3 4 8 9 11 12 15) | 752

Study 3
Target: Sal-like protein 4, full length isoform A (SALL4, Homo sapiens, UniProt Q9UJQ4, residues 1-1053)
Chain of UniProt Q9UJQ4 (whole entry, looked up): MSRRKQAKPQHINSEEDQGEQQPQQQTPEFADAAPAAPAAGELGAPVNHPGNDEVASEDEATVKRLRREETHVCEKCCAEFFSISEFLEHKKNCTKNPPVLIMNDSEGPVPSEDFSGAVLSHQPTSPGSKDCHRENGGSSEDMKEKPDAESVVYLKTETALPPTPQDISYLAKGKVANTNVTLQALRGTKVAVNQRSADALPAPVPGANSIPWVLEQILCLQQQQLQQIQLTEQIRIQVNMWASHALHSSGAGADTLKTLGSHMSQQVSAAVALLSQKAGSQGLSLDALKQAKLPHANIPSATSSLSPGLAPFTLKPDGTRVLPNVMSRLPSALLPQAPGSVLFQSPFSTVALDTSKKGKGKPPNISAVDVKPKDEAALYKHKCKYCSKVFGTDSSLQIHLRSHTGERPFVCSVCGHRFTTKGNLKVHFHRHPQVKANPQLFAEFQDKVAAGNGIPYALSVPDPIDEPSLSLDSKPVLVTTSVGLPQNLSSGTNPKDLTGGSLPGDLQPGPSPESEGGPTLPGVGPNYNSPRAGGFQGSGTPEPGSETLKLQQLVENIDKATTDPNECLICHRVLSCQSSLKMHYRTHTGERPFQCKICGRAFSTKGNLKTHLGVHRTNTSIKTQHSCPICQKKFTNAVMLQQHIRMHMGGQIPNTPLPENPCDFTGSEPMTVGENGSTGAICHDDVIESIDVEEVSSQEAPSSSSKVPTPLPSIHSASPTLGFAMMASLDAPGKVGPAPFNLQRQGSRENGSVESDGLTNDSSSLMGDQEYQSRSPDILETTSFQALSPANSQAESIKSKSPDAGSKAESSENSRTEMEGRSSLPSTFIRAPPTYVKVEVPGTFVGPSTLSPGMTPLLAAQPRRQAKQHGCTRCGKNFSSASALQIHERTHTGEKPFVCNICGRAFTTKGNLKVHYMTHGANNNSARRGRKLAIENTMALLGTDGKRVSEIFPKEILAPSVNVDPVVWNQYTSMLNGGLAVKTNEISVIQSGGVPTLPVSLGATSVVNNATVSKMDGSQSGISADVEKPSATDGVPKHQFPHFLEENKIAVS
Method: universal PBM
Form: double-stranded DNA, one strand shown
Matrix: in vitro
Tested at: 600 nM
Notes: 8-mer, flanks averaged, mean of replicates
Reading: higher = stronger binding
Strand | E-score
AAAGGTCC | -0.21
ACCCATTA | 0.0921
AGCCTCTC | -0.127
ACTCCAAG | -0.0338
ACGGGACT | -0.24
AAAACCGT | 0.104
GACCTTGC | -0.194

Other studies, line by line
Molecule | target | test | test system | conditions | how to read | quantity | value
PhoQ, residues 284 288 289 292 302 303 SMMNNA | PhoP, residues 12 14 15 18 19 NMSFL (Escherichia coli, UniProt P23836) | Sort-seq, item: YFP reporter | E. coli | PhoQ-PhoP variant library, with: 10 µM Mg2+ | relative to: high Mg2+ state, higher = stronger signaling | fold induction | 11.3

A few entries again (study 3):
Strand | E-score
ACCCATTA | 0.0921
AGCCTCTC | -0.127
